Published values gathered from unrelated publications.
Numbered parts are unrelated; each lists some results of a single study.

Study 1
Target: RNA binding protein fox-1 homolog 2, RRM domain, GST-SBP tag (RBFOX2, Homo sapiens, UniProt O43251-10, residues 100-194)
Method: RNA Bind-n-Seq
Form: RNA
Medium: in vitro
Concentration: 365 nM
Setting: natural RNA segment, single round, ends assumed
Relative to: no-protein control
Direction: higher = stronger binding
Construct (chain): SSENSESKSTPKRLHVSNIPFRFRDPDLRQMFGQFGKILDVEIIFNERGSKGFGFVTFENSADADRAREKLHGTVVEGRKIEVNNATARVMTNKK
Strand | RBNS enrichment (R)
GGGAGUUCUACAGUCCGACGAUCGAUUUUAAUUAGCUGUGAGAUUUAUGCACAAAGUGAAUAUUUAGCUGAUAGAAAUUAUGAUUUUGUUUCAAAUGUGGCUUUGCUUUUGUUUUGUUUUGUUUUGUUUUUUCUGGAAUUCUCGGGUGCCAA | 7.31
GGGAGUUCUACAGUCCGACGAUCGGUUUUGCCACCUCCUCUCUCAGUAUCACUCCCUCCUCCCCAAACCCCAAUCUCCAGUGUCUGUAGCUCUUGCCUGCAAGUCUUGCUUGUGGGGUGACGAGGGGUGUAGAUGGAAUUCUCGGGUGCCAA | 0.316
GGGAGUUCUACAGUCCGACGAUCGUGAAAACUUAACGCUUUUUGGAAGACAUUUCUGUAGCAUGUCAGUUUGGAGAAAUGAUGAGCUACGCCUUGAUGAAAGAACCGUGUUGGUGCUGCUAAGUUUAGCCAUUUGGAAUUCUCGGGUGCCAA | 2.32
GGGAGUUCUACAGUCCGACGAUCGGACUCCCUUGGCUCAGAGUGUGGUGCUAGAAACUGGUCCCCAGCCCAGUCCCAGUACUGCCAUCUUUGCAUCCACCCCUGCAAGUCUCCAGAGGGCUUCCUGCCACAGAUGGAAUUCUCGGGUGCCAA | 0.284
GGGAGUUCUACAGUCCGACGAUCGGCAAUAUGGUUUGUAAAAUACAGAAACACUGCCCAAUUGUGAUGUUGUCAAUGGGCUCCUGAUGCCCAUAUUCUGGGGAACCUUAGAUACUGCCAUAGAAGCUAAAAGCUGGAAUUCUCGGGUGCCAA | 0.539
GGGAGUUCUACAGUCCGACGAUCACAUGGACGCAACCUCAACCCAGCGCAGUUACAACUUCACUAUCAGCGGAAGGGGAGAAAAACCGAUUCAAAUCAACUUGUACAUGGAAACAGCAAGCAUUAUGGUCAAAUGGAAUUCUCGGGUGCCAA | 0.343
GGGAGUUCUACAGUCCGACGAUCCCUUGUAAUUGUCUCUGACCUUUUUAUCUGAGACCGGAAUUCAGGAUAGGAGUCUAGAUAUUUACCUGAUACUAAUCAGGAAAUAUAUGAUAUCCGUAUUUAAAAUGUAGUGGAAUUCUCGGGUGCCAA | 0.379
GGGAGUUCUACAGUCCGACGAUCGGCUUACGCAAAAGGUCACCAUUUGAGGUCCUGCCUUACUAAUUAUGUGCUGCCCAACAACUAAAUUUGUAAUUUGUUUUUCUCUAGUUUGAGCAGGGUCUGAAUUUUUUUGGAAUUCUCGGGUGCCAA | 0.492
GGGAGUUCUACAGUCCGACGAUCACCUUGGACUUGAGGACCUACCUGAUGGGACGUUUCCACGUGUCUCUAGAGAAGGAUUCCUGGAUCUAGCUGGUCACGACGAUGUUUUCACCAAGGUCACAGGAGCAUUGUGGAAUUCUCGGGUGCCAA | 0.222
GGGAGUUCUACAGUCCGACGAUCUUUAAGAACAUUUAUUUCCCCUUUUCACUUUAAAAAAUUAUGAUUAUUCCUAUUAUUGUUAUGAACCUUCUUAUUUUACAUUUGAGGGAUAAAGGCAAAUGAUUUGUGAGUGGAAUUCUCGGGUGCCAA | 0.546
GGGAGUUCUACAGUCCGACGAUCUUUCCAAGGAGAGCAGCUUUCUCCACAGGAACACAGUAACAAAAGAGGUCCGCCGCCAUCCACACCCAGCCAAGACACCUCAGAGGCCAUAGGGACAACCUCCUUGCUGGUGGAAUUCUCGGGUGCCAA | 0.313
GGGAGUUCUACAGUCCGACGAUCUUCCAAAAGCCUUCAAGAUGGCAGCAGAUGGACACACCCUCUCAUUUCUUGUGUCUUGUCUGUCAGAUGGCAGGAGGCCUGUAUCAGUAAAUUUGAGGAAAAUGUUCUCUUGGAAUUCUCGGGUGCCAA | 0.38

Study 2
Target: Interferon regulatory factor 5, full length, phosphomimetic (IRF5, Homo sapiens, UniProt Q13568-2, residues 1-514, K96S/S451D/S453D/S456D/S462D)
Method: protein-binding microarray
Form: double-stranded DNA, one strand shown
Medium: in vitro
Concentration: 250 nM
Setting: 60-bp whole probe
Together with: salmon DNA 0.4 mg/ml
Relative to: random background probes
Direction: higher = stronger binding
Constant ends, left off below: GCCTAGCAC … GTCTTGATTCGCTTGACGCTGCTG
Strand | log fluorescence
TCAGGTTTCTATATTTGACTGTGCTAG | 2.42 z-score
GACGGTCTCGGTATCTGGACGTGCTAG | 0.418 z-score
GACGAACTAGGGTATCGAGACGTGCTA | 0.0124 z-score
TTACATATCAGACTGGATTAGTGCTAG | 0.578 z-score
TCAGCTTTGTGCCTAGCACTGTGCTAG | -0.0163 z-score
ATAGGTTTCGACTTTCGGTTAGTGCTA | 10.4 z-score
TCAACTTTCTACGTCTGACTGTGCTAG | 1.93 z-score
GACGGAATGCTTTTCCTGACGTGCTAG | 0.0361 z-score
GACGGTCTCCTTATCCTGGCGTGCTAG | -0.262 z-score
TCATCTGTGCCTTTTTTACTGTGCTAG | 0.55 z-score
TCAGCCATATTTATCTGACTGTGCTAG | 0.0764 z-score
TTAGATATCAGTCTCGAATAGTGCTAG | 1.52 z-score
GACGGGCTGGACACTGGGGACGTGCTA | -0.686 z-score
GACGGTTTCCCTTTCCTGACGTGCTAG | 1.24 z-score
TTAGGACTAGGGTATCGGTTAGTGCTA | 1.8 z-score
TCACATCTCTGCTCCTTACTGTGCTAG | 0.399 z-score
TTAGGTTTCGGATATCGGTTAGTGCTA | 8.09 z-score
GACGATCTCAGTATCGAGAGGTGCTAG | 1.7 z-score
TCAGGACTGCTTCTCCTTTAGTGCTAG | -0.105 z-score
GACGATTTCGGGATTCGAGACGTGCTA | 2.55 z-score
TTAGGTCTCGGTATCGGTAAGTGCTAG | 3.74 z-score
TCAAGAAAGAAAACGGGGAGGTGCTAG | 0.61 z-score
TTTGGTCTCGGTCTCGGTTAGTGCTAG | 1.78 z-score
TTAGGTATCGGTAGCGGTTAGTGCTAG | 5.97 z-score
CTAGGTATCGGTCTCGGTTAGTGCTAG | 6.09 z-score

Study 3
Target: Fragile X messenger ribonucleoprotein 1, C-terminal low-complexity region (Fmr1, Mus musculus, UniProt P35922)
Method: RNA Bind-n-Seq
Form: RNA
Medium: in vitro
Concentration: 200 nM
Setting: whole 134-nt RNA, ends assumed
Together with: 150 mM LiCl
Relative to: input library
Direction: higher = stronger binding
All molecules: 7-deaza-guanosine replaces G
Strand | log2 enrichment
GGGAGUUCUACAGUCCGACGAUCGCAGGAAGUAAAAACAAAUGGAAAUGCUUCGGAUAGUGGCAGGGGUGGGGGUUGCUAAGGAAAGGCUGGGAUGGGAGUGGGUAAAGAGUUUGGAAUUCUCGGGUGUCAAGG | 1.41
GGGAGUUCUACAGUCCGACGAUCAGUCCUGUGCUACACAUCGUAUGUACCGAAUCAAACCCAAAUUUAAACCCCCCCAAAAAAGUAUUAUGUUACGCCGUUCGGAUCUGCACUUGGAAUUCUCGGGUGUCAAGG | 1.16
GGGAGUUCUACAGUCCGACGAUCAAGUCCUGUGCUACACAUCGUAUGUACCGAAUCGGAAAAAAAGGUUUUUUUGGAGGAAAGUAUUAUGUUACGCCGUUCGGAUCUGCACUUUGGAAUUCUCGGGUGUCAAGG | -3.19
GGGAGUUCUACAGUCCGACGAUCGCAGGAAGUAAAAACAAAUGGAAAUGCUUCGGAUAGUGUCAGGGGUGGGGGUUGCUAAGGAAAGGGUGGGAUGGGAGUGGGUAAAGAGUUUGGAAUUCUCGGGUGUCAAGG | 1.46
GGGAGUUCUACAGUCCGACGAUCACCAUGCAGGUGGGCAUCUUUGGGAAGUGGGGCAAGGGGGGGAUAGGGAGGGGGGUAACACUUUGGGAACAGGUGGUCCCAGGUAAAUUCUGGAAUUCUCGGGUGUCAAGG | 1.22
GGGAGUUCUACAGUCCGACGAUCGCAGGAAGUAAAAACAAAUGGAAAUGCUUCGGGUAGUGGCAGGGGUGGGGGUUGCUAAGGAAAGGGUGGGAUGGGAGUGGGUAAAGAGUUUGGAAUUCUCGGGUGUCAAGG | 1.31
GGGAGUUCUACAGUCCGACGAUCGUCCUGUGCUACACAUCGUAUGUACCGAAUCGGAAAAAGGAAAAAAAGGUUUUUUUGGAAAGUAUUAUGUUACGCCGUUCGGAUCUGCACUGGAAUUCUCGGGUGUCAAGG | -2.3
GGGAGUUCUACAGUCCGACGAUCCCUCAAGUCCUGUGCUACACAUCGUAUGUACCGAAUCGGCCGGCCGGCCGGGAAAGUAUUAUGUUACGCCGUUCGGAUCUGCACUUCCAGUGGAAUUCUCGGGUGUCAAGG | -0.112
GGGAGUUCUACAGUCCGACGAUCGACAGACAACACGCACCCACACAGACACAGAGGGAAGGGGUUGGGAUGGGGACAGGGUGCACAGCAGGGCGGGGUAGGACCCCAGCCCCUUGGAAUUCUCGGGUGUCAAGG | 0.687
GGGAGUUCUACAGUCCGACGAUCCACAGACAAGACGCACCCACACAGACACAGAGGGAAGGGGUUGGGAUGGGGACAGGGUGCACAGCAGGGCGGGGUAGGACCCCAGCCCCUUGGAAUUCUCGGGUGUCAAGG | 0.398
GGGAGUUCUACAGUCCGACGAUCCUCAAGUCCUGUGCUACACAUCGUAUGUACCGAAUCGGAGGAGGAAAAAAAGGAAAGUAUUAUGUUACGCCGUUCGGAUCUGCACUUCCAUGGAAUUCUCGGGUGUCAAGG | -1.2

Study 4
Target: Histone acetyltransferase KAT6A, both winged helices, GST fusion (KAT6A, Homo sapiens, UniProt Q92794, residues 1-181)
Method: protein binding microarray
Form: double-stranded DNA, one strand shown
Medium: in vitro
Concentration: not given
Setting: 8-mer, flanks averaged, mean of 2 arrays, mostly near background
Relative to: not given
Direction: higher = stronger binding
Target sequence (chain): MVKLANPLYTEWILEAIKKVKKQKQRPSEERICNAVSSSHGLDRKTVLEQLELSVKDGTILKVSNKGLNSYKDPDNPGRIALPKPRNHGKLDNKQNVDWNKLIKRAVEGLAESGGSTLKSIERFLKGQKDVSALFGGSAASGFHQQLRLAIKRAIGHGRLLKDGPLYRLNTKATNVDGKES
Strand | E-score
AATAAAGA | -0.174
GACCTGCC | -0.0979
AGGGTGAA | -0.216
CAACCAGC | -0.0363
ATCAGTCC | -0.0864
CTGAGCCC | -0.115
AAAGCGTT | 0.0765
GCCGTTCA | 0.195
CAAACATA | -0.137
GGTGGAGA | -0.159
CCCTAAGC | -0.059
CACGAATG | -0.209
ATGTAGTG | -0.183
TCTACAAA | -0.169
CCCCGTAG | 0.154
ATTTAAAA | -0.0242
AATTGCCC | -0.0725
CCTATAGG | -0.139
AAGAACCA | -0.0683
GCCCATCA | -0.125
GGAGTTCA | -0.129
ACAGAGGG | -0.131
CCAAAAAC | -0.143
AGGCCCCC | -0.0745
AAAGGCAC | 0.023

For quick reference, copied from above (study 2):
Strand | log fluorescence
ATAGGTTTCGACTTTCGGTTAGTGCTA | 10.4 z-score
TTAGATATCAGTCTCGAATAGTGCTAG | 1.52 z-score
TTAGGTTTCGGATATCGGTTAGTGCTA | 8.09 z-score
TCATCTGTGCCTTTTTTACTGTGCTAG | 0.55 z-score
TTAGGTCTCGGTATCGGTAAGTGCTAG | 3.74 z-score
CTAGGTATCGGTCTCGGTTAGTGCTAG | 6.09 z-score
TCAGGACTGCTTCTCCTTTAGTGCTAG | -0.105 z-score
